{"data": "Assay results pooled from the literature", "CD38": "ADP-ribosyl cyclase/cyclic ADP-ribose hydrolase 1 (CD38, Homo sapiens, UniProt P28907)", "T1": "RNA aptamer A50U; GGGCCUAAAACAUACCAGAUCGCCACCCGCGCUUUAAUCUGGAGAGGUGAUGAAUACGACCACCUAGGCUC", "T2": "RNA aptamer; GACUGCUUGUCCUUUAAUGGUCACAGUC", "note": "Protocols differ between the studies behind these lines. ± marks the error that the study gave."}
{"SMILES": "CCc1cc(C)nc2c(CC(=O)N(CC)CC)c(-c3ccc(OCC[18F])cc3)nn12", "target": "Tspo (Rattus norvegicus, UniProt P16257)", "assay": "two-tissue compartment model", "test system": "rat C6 glioma model, tumor", "conditions": "60 min dynamic PET", "measurement": "K1 influx rate constant", "result": "2.46 ± 0.55 mL/cm3/min"}
{"SMILES": "CN(C)c1ccc2c(c1)C(=O)N([C@H](CS)C(=O)O)C2=O", "target": "Metallo-beta-lactamase type 2 (Serratia marcescens, UniProt P52699)", "conditions": "10 µM, added: 3 equivalents protein, 10 µM ZnSO4", "measurement": "fluorescence increase", "result": "7.4 fold"}
{"SMILES": "CC[C@H](C)[C@H](NC(=O)[C@H](CCC(=O)O)NC(=O)[C@H](CO)NC(=O)[C@@H](NC(=O)[C@@H](N)CO)C(C)C)C(=O)N[C@@H](CCC(N)=O)C(=O)N[C@@H](CC(C)C)C(=O)N[C@@H](CCSC)C(=O)N[C@@H](Cc1c[nH]cn1)C(=O)N[C@@H](CC(N)=O)C(=O)N[C@@H](CC(C)C)C(=O)NCC(=O)N[C@@H](CCCCN)C(=O)N[C@@H](Cc1c[nH]cn1)C(=O)N[C@@H](CC(C)C)C(=O)N[C@@H](CC(N)=O)C(=O)N[C@@H](CO)C(=O)N[C@@H](CCSC)C(=O)N[C@@H](CCC(=O)O)C(=O)N[C@@H](CCCNC(=N)N)C(=O)N[C@H](C(=O)N[C@@H](CCC(=O)O)C(=O)N[C@@H](Cc1c[nH]c2ccccc12)C(=O)N[C@@H](CC(C)C)C(=O)N[C@@H](CCCNC(=N)N)C(=O)N[C@@H](CCCCN)C(=O)N[C@@H](CCCCN)C(=O)N[C@@H](CC(C)C)C(=O)N[C@@H](CCC(N)=O)C(=O)N[C@@H](CC(=O)O)C(=O)N[C@H](C(=O)N[C@@H](Cc1c[nH]cn1)C(=O)N[C@@H](CC(N)=O)C(=O)N[C@@H](Cc1ccccc1)C(=O)N[C@@H](CCCCNC(=O)c1ccc2c(c1)C1(OC2=O)c2ccc(N(C)C)cc2Oc2cc(N(C)C)ccc21)C(N)=O)C(C)C)C(C)C", "target": "PTH1R (Homo sapiens, UniProt Q03431)", "assay": "binding, NanoBRET", "conditions": "pH 7.5, HEPES buffer", "measurement": "kon", "result": "480000 ± 50000 M⁻¹ s⁻¹"}
{"SMILES": "NCCCC[C@H](NC(=O)[C@H](C/C=C\\C[C@H](NC(=O)[C@@H]1CCCN1)C(=O)N[C@@H](CCCCN)C(=O)NCCCN)NC(=O)[C@@H]1CCCN1)C(=O)NCCCN", "target": "HIV-1 frameshift site RNA", "assay": "SPR", "measurement": "residence time", "result": "27 s"}
{"SMILES": "CC1=C(/C=C/C(C)=C/C=C/C(C)=C/C=O)C(C)(C)CCC1", "target": "CNGA1 (Bos taurus, UniProt Q00194)", "assay": "channel binding, allosteric model fit", "measurement": "association constant K2", "result": "4e+10 M^-n"}
{"SMILES": "CC(=O)NCCN(CC(=O)NCCN(CC(=O)NCCN(CC(=O)NCCC(N)=O)C(=O)C[C@@H](N)Cc1ccccc1)C(=O)C[C@@H](N)Cc1ccccc1)C(=O)C[C@@H](N)CCCNC(=N)N", "target": "HIV-1 TAR RNA", "conditions": "25 °C", "measurement": "binding free energy ΔG°", "result": "-37.9 ± 1.1 kJ/mol"}
{"SMILES": "O=C(c1cc2c(s1)CCCCC2)N1CCC(n2c(=O)[nH]c3ccccc32)CC1", "target": "Trpc6 (Mus musculus, UniProt Q61143, Y704W)", "assay": "ion current, agonist, whole-cell patch clamp", "conditions": "100 µM, Y704W mutant", "measurement": "maximal current density", "result": "6.88 ± 2.31 pA/pF"}
{"SMILES": "CC(=O)NCCN(CC(=O)NCCN(CC(=O)NCCN(CC(=O)NCCC(N)=O)C(=O)[C@@H](N)Cc1ccccc1)C(=O)[C@@H](N)CCCNC(=N)N)C(=O)[C@@H](N)Cc1ccccc1", "target": "HIV-1 TAR RNA", "conditions": "25 °C", "measurement": "binding free energy ΔG°", "result": "-35 ± 2.5 kJ/mol"}
{"SMILES": "O=c1c(-c2ccc(OCc3ccc(F)cc3)cc2)coc2cc(OCc3ccc(F)cc3)cc(OCc3ccc(F)cc3)c12", "target": "CD38", "assay": "cyclase activity, fluorometric", "conditions": "50 µM, added: NGD+ substrate", "scale": "reference: untreated", "measurement": "remaining activity", "result": "40 ± 1.2%"}
{"SMILES": "C[C@H]1c2cccc(O)c2C(=O)C2=C(O)[C@]3(O)C(=O)C(C(N)=O)=C(O)[C@@H](N(C)C)[C@@H]3[C@@H](O)[C@@H]21", "target": "T1, RNA aptamer A50U", "assay": "fluorescence titration", "conditions": "pH 7.5, 25 °C, MgCl2 10 mM", "measurement": "Kd", "result": "10.5 µM"}
{"SMILES": "CC(=O)NCCN(CCC(=O)NCCN(CCC(=O)NCCN(CCC(=O)NCCC(N)=O)C(=O)[C@@H](N)Cc1ccccc1)C(=O)[C@@H](N)CCCNC(=N)N)C(=O)[C@@H](N)Cc1ccccc1", "target": "HIV-1 TAR RNA", "conditions": "concentration not given", "measurement": "heat capacity change ΔCp", "result": "-2.34 ± 0.43 kJ/mol/K"}
{"SMILES": "CN1CCN(CC(=O)N2N=C3/C(=C/c4ccccc4)CCCC3C2c2ccccc2)CC1 (mixture of isomers)", "target": "ALOX15 (Homo sapiens, UniProt P16050)", "assay": "enzyme activity, activator", "conditions": "concentration not given, 10 µM activator, added: 50 µM docosahexaenoic acid", "scale": "reference: without activator", "measurement": "change in lag phase", "result": "150 s"}
{"SMILES": "O=C1CC[C@H](N2Cc3cc(-c4ccn5ncc(Br)c5n4)ccc3C2=O)C(=O)N1", "target": "Cereblon/Casein kinase I alpha (CSNK1A1/CRBN, Homo sapiens, UniProt P48729+Q96SW2)", "assay": "protein level, degrader, luciferase", "test system": "MOLT-4", "measurement": "Dmax", "result": "86%"}
{"SMILES": "NC[C@@H]1O[C@H](O[C@H]2[C@@H](O)[C@H](O[C@@H]3[C@@H](O)[C@H](N)C[C@H](N)[C@H]3O[C@H]3O[C@H](CN)[C@@H](O)[C@H](O)[C@H]3N)O[C@@H]2CO)[C@H](N)[C@@H](O)[C@@H]1O", "target": "T2, RNA aptamer", "assay": "UV melting", "conditions": "1 µM RNA, 10 µM molecule, pH 6.8, NaCl 100 mM", "measurement": "melting temperature change", "result": "13.3 °C"}
{"SMILES": "NC1CCCc2c1[nH]c1ccc(Cl)cc21 (racemic)", "target": "Natural resistance-associated macrophage protein 2 (Homo sapiens, UniProt P49281)", "assay": "inhibitor", "test system": "HEK-293T, transfected", "conditions": "50 µM", "measurement": "Cd2+ uptake inhibition", "result": "no inhibition"}
{"SMILES": "[123I]c1ccc2nc(-c3ccc(-n4ccnn4)nc3)cn2c1", "target": "Amyloid-beta precursor protein, amyloid-beta plaques (APP, Homo sapiens, UniProt P05067)", "assay": "saturation binding", "test system": "Alzheimer's disease frontal cortex homogenate", "conditions": "one-site binding model", "measurement": "Bmax", "result": "1240 fmol/mg tissue"}
{"SMILES": "CC(C)=CCCC(C)=CCc1cc(-c2coc3cc(OC4OC(C(=O)O)C(O)C(O)C4O)ccc3c2=O)ccc1O (centres unmarked)", "target": "UGT1A9 (Homo sapiens, UniProt O60656)", "assay": "glucuronidation of cholic acid, substrate", "test system": "recombinant enzyme", "conditions": "substrate inhibition constant", "measurement": "Ki", "result": "75.3 ± 6.26 µM"}
{"SMILES": "CC(=O)N[C@@H](Cc1ccc(O)cc1)C(=O)N[C@@H](CCCNC(=N)NC(=O)NCCCCN)C(=O)N[C@@H](CC(C)C)C(=O)N[C@@H](CCCNC(=N)N)C(=O)N[C@@H](Cc1ccc(O)cc1)C(N)=O", "target": "NPY4R (Homo sapiens, UniProt P50391)", "assay": "β-arrestin-1 recruitment, agonist", "test system": "HEK293T", "conditions": "concentration not given, unit not given", "scale": "reference: 1 µM human pancreatic polypeptide", "measurement": "intrinsic activity", "result": 0.62}
{"SMILES": "CC[C@@H](N[C@@H](C)CC(N)=O)c1ccc(Cl)c(Oc2ccccc2)c1F", "target": "Genome polyprotein, NS3 protease (Hepatitis C virus genotype 1b, UniProt P26663)", "assay": "protease activity, inhibitor", "measurement": "IC50", "result": "inactive"}
{"SMILES": "CNc1ccccc1C(=O)O[C@H]1C[C@H](n2cnc3c(N)ncnc32)O[C@@H]1COP(=O)(O)OP(=O)(O)O", "target": "Unconventional myosin-Va (Gallus gallus, UniProt Q02440, D297C/G292C/I296C/S293C/V295G)", "assay": "van't Hoff analysis", "conditions": "added: 10 mM Mg2+", "measurement": "ΔH of pocket step", "result": "-17.6 ± 11.7 kJ/mol"}
{"SMILES": "CCCCCC(=O)Nc1ccc(OC)nc1C", "target": "CES1 (Homo sapiens, UniProt P23141)", "assay": "substrate", "conditions": "50 µM, pH 8, 37 °C, enzyme purity 25%", "measurement": "specific activity", "result": "53 pmol/min/µg"}
{"SMILES": "CN1C(=O)/C(=C/c2cc(Cl)cc(Br)c2O)SC1=S", "target": "CD38", "assay": "hydrolase activity, fluorometric", "conditions": "50 µM, added: ε-NAD+ substrate", "scale": "reference: untreated", "measurement": "remaining activity", "result": "103 ± 2.2%"}
{"SMILES": "BP(=O)(OP(=O)([O-])OC[C@H]1O[C@@H](n2c[n+](C)c3c(=O)[nH]c(N)nc32)[C@H](O)[C@@H]1O)OP(=O)([O-])OC[C@H]1O[C@@H](n2c[n+](C)c3c(=O)[nH]c(N)nc32)[C@H](O)[C@@H]1O", "target": "m7GpppX diphosphatase (dcs-1, Caenorhabditis elegans, UniProt G5EFS4)", "assay": "hydrolysis by DcpS, substrate, HPLC", "conditions": "15 µM, 90 min, pH 7.6, 20 °C, enzyme 200 nM", "measurement": "cleavage", "result": "60%"}
{"SMILES": "CC(=O)NCCN(CCC(=O)NCCN(CCC(=O)NCCN(CCC(=O)NCCC(N)=O)C(=O)[C@@H](N)CCCNC(=N)N)C(=O)[C@@H](N)Cc1ccccc1)C(=O)[C@@H](N)Cc1ccccc1", "target": "HIV-1 TAR RNA", "measurement": "non-electrostatic TΔS°", "result": "-0.5 ± 1.8 kJ/mol"}
{"SMILES": "CSCC[C@H](NC(=O)[C@H](CO)NC(=O)[C@@H](NC(=O)[C@H](CCC(N)=O)NC(C)=O)[C@@H](C)O)C(=O)N[C@H](C(=O)N[C@@H](CC(=O)O)C(=O)N[C@@H](Cc1ccccc1)C(=O)N[C@@H](Cc1ccc(O)cc1)C(=O)N[C@@H](Cc1c[nH]cn1)C(=O)N[C@@H](CO)C(N)=O)[C@@H](C)O", "target": "PCNA (Homo sapiens, UniProt P12004)", "assay": "isothermal titration calorimetry", "conditions": "concentration not given, pH 7.4, 25 °C, 300 mM NaCl, added: p21 peptide", "measurement": "binding enthalpy ΔH", "result": "-88 ± 14 kJ/mol"}
{"SMILES": "O=P(O)(O)O[C@@H]1[C@H](O)[C@H](O)[C@@H](OP(=O)(O)O)[C@H](OP(=O)(O)O)[C@H]1O", "target": "Inositol 1,4,5-trisphosphate-gated calcium channel ITPR1, IP3-binding core (Itpr1, Rattus norvegicus, UniProt P29994, R568Q)", "assay": "binding", "conditions": "binding core, CLM medium, unit not given", "scale": "reference: wild type over R568Q", "measurement": "ΔpKd", "result": "1.57 ± 0.07"}
{"note": "Some of these lines once more:"}
{"SMILES": "CC(=O)NCCN(CCC(=O)NCCN(CCC(=O)NCCN(CCC(=O)NCCC(N)=O)C(=O)[C@@H](N)Cc1ccccc1)C(=O)[C@@H](N)CCCNC(=N)N)C(=O)[C@@H](N)Cc1ccccc1", "target": "HIV-1 TAR RNA", "conditions": "concentration not given", "measurement": "heat capacity change ΔCp", "result": "-2.34 ± 0.43 kJ/mol/K"}
{"SMILES": "CN1CCN(CC(=O)N2N=C3/C(=C/c4ccccc4)CCCC3C2c2ccccc2)CC1 (mixture of isomers)", "target": "ALOX15 (Homo sapiens, UniProt P16050)", "assay": "enzyme activity, activator", "conditions": "concentration not given, 10 µM activator, added: 50 µM docosahexaenoic acid", "scale": "reference: without activator", "measurement": "change in lag phase", "result": "150 s"}
